# Measured values from different studies.
# Each line is one published result; not all experiments were run side by side. Where no end group is shown, it is not given here. No end group written: not given here. The star is where a group is joined. *: point of attachment.
# B1: UGT1A9 (Homo sapiens, UniProt O60656); chain GKLLVVPMDGSHWFTMRSVVEKLILRGHEVVVVMPEVSWQLGRSLNCTVKTYSTSYTLEDLDREFKAFAHAQWKAQVRSIYSLLMGSYNDIFDLFFSNCRSLFKDKKLVEYLKESSFDAVFLDPFDNCGLIVAKYFSLPSVVFARGILCHYLEEGAQCPAPLSYVPRILLGFSDAMTFKERVRNHIMHLEEHLLCHRFFKNALEIASEILQTPVTEYDLYSHTSIWLLRTDFVLDYPKPVMPNMIFIGGINCHQGKPLPMEFEAYINASGEHGIVVFSLGSMVSEIPEKKAMAIADALGKIPQTVLWRYTGTRPSNLANNTILVKWLPQNDLLGHPMTRAFITHAGSHGVYESICNGVPMVMMPLFGDQMDNAKRMETKGAGVTLNVLEMTSEDLENALKAVINDKSYKENIMRLSSLHKDRPVEPLDLAVFWVEFVMRHKGAPHLRPAAHDLTWYQYHSLDVIGFLLAVVLTVAFITFKCCAYGYRKCLGKKGRVKKAHKSKTH
# B2: LPHN3 OLF 199-495 A313S (Mus musculus, UniProt Q80TS3); sequence looked up; chain KVFLCPGLLKGVYQSEHLFESDHQSGAWCKDPLQASDKIYYMPWTPYRTDTLTEYSSKDDFIAGRPTTTYKLPHRVDGTGFVVYDGALFFNKERTRNIVKFDLRTRIKSGEAIISNANYHDTSPYRWGGKSDIDLAVDENGLWVIYATEQNNGKIVISQLNPYTLRIEGTWDTAYDKRSASNAFMICGILYVVKSVYEDDDNEATGNKIDYIYNTDQSKDSLVDVPFPNSYQYIAAVDYNPRDNLLYVWNNYHVVKYSLDFGPLDSRSGPVHHGQVSYISPPIHLDSELERPPVRGI
# Chain of UniProt Q9Y6K9 (whole entry, unmodified, looked up): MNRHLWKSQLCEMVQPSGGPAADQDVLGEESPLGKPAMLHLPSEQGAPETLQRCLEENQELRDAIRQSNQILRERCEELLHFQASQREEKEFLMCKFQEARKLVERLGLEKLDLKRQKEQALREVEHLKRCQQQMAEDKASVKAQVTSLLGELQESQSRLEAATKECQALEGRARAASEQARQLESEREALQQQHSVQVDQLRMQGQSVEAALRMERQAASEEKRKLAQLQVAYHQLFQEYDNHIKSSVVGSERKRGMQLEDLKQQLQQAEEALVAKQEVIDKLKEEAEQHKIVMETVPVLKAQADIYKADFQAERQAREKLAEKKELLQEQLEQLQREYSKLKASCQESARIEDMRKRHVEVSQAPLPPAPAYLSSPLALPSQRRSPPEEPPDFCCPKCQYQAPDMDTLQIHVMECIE
# Chain of UniProt Q96LB0 (whole entry, looked up): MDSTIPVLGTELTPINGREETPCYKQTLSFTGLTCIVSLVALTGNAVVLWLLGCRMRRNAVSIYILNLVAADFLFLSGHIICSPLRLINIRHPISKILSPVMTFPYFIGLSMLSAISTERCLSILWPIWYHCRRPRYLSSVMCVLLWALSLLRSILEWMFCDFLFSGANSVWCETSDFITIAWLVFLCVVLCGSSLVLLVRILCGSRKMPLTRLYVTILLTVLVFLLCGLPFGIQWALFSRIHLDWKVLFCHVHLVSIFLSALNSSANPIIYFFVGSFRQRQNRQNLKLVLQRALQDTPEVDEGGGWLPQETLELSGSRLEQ
# Chain of UniProt Q8BGT1 (whole entry, looked up): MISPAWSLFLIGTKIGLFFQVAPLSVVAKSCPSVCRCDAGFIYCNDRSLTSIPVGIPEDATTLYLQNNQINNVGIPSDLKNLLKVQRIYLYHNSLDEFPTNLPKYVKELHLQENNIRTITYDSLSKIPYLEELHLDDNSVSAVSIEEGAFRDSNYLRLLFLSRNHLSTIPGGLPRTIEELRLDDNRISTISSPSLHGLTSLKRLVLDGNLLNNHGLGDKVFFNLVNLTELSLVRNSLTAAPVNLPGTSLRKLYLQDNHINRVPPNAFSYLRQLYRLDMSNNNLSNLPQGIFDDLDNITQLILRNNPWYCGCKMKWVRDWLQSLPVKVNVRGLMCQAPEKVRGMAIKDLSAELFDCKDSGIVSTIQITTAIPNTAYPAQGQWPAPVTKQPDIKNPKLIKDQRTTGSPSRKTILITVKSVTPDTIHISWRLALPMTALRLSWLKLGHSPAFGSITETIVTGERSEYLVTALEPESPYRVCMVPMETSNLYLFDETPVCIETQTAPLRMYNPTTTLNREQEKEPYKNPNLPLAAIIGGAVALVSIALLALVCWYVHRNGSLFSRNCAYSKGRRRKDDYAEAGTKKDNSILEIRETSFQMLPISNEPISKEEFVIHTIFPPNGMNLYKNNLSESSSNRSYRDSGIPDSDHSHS
# Chain of UniProt Q9GT24 (whole entry, looked up): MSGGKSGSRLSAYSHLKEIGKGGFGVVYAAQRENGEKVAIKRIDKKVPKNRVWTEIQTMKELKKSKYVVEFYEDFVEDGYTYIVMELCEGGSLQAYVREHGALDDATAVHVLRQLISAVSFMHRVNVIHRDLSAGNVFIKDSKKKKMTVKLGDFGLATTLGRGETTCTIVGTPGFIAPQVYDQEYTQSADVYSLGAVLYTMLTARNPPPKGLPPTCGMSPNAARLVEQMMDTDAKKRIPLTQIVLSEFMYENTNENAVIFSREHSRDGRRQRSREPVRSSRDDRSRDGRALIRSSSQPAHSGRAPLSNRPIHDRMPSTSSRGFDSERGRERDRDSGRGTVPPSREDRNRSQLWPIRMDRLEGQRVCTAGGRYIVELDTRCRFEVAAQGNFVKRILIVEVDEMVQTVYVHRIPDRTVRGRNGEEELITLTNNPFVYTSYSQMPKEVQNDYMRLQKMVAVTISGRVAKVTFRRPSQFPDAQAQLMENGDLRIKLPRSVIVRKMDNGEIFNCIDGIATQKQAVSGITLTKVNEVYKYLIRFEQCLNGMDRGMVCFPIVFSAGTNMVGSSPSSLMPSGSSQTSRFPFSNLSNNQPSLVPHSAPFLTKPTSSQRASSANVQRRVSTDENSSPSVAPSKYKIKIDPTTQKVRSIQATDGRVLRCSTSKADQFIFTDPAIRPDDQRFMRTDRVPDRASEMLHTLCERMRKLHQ
# Chain of UniProt Q12873 (whole entry, looked up): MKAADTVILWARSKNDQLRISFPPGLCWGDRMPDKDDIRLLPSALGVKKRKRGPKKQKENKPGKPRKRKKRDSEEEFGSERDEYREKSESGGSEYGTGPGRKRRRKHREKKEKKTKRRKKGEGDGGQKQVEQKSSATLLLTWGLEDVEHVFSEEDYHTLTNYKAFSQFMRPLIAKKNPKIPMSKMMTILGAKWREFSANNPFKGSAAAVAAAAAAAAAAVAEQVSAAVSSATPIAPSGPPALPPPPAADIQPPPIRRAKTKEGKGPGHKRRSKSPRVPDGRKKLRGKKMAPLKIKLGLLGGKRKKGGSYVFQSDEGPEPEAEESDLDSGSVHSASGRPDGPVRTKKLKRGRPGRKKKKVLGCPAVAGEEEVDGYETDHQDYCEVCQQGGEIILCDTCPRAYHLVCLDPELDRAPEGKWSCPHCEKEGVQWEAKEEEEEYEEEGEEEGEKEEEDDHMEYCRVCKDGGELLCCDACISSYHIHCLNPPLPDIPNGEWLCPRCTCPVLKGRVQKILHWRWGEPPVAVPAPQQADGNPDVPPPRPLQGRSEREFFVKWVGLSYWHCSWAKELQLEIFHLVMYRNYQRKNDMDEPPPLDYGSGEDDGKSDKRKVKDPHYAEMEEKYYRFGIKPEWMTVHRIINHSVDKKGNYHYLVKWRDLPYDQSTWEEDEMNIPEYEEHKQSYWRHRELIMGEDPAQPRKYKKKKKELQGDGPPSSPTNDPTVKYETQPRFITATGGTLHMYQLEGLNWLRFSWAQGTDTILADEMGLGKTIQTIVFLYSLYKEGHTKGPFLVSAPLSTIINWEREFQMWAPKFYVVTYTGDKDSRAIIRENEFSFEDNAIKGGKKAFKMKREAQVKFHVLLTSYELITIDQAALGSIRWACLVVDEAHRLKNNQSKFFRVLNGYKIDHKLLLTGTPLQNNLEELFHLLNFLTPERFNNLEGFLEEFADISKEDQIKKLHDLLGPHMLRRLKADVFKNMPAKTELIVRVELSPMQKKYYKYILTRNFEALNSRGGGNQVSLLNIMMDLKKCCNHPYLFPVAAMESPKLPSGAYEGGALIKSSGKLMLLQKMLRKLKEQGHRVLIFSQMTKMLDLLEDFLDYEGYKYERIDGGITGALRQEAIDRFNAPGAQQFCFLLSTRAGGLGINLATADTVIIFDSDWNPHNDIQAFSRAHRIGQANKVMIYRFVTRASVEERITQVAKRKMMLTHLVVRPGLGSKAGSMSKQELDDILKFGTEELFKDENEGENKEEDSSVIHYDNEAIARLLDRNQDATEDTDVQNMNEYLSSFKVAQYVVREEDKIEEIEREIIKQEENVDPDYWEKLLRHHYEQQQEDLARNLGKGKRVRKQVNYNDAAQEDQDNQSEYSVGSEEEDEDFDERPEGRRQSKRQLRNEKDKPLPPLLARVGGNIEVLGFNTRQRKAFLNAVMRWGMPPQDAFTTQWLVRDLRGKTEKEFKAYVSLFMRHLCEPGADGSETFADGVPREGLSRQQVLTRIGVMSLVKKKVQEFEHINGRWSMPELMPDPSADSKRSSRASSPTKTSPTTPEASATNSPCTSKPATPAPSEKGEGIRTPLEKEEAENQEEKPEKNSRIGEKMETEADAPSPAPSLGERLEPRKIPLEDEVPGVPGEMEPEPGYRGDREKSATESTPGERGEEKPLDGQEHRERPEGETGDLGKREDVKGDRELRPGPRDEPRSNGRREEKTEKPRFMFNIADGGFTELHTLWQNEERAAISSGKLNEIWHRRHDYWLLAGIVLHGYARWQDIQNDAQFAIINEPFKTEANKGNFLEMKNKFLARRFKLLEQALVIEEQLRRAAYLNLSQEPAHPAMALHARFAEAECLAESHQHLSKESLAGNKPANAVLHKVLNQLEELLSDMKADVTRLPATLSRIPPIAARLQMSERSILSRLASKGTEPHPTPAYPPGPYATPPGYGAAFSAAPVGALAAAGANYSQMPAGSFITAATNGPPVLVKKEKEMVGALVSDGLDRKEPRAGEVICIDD
# Chain of UniProt Q8WR51 (whole entry, unmodified, looked up): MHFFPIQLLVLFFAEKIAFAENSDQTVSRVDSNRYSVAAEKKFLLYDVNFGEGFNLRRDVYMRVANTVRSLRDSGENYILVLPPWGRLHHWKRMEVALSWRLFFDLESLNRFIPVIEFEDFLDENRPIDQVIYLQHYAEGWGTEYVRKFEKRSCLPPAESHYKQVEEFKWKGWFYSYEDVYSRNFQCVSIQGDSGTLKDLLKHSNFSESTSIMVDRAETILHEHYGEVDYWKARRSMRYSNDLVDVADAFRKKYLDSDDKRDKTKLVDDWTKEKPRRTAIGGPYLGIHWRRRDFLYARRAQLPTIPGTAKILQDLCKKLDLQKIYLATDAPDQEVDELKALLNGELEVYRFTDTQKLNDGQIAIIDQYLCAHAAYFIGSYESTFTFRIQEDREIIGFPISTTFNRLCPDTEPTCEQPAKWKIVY
Substance,target or system,assay,system,setting,endpoint,result
"VGVK(Me3)KPL-NH2 (H3 peptide residues 33-39 G33V/H39L; K36me3, C-terminal amide; Me3 = trimethyl (on lysine, Kme3))","PHF1 25-87 (Homo sapiens, UniProt O43189-1)",ITC,peptide,"pH 7.5, 25 °C, NaCl 150 mM",Kd,16300 nM
B1 (UGT1A9),COc1cc(-c2cc(=O)c3c(O)cc(O)cc3o2)ccc1O,steady-state kinetics,,"pH 7.4, 37 °C",Km,0.91 µM
"Biotin-GIINTLQKYYCRVRGGRCAVLSCLPKEEQIGKCSTRGRKCCRRKK (DEFB103A (Homo sapiens, UniProt P81534); ends and bridges not checked; Biotin = O=C1N[C@H]2[C@H](CS[C@H]2CCCCC(=O)*)N1; sequence looked up)","MRGPRX3 (Homo sapiens, UniProt Q96LB0)","PE-anti-biotin intensity, flow cytometry","peptide, MRGPRX3-FLAG cells",,Kd,11100 nM
B2 (LPHN3 OLF 199-495 A313S),"FLRT3 LRR domain 29-386, N-linked glycosylation (Mus musculus, UniProt Q8BGT1)",ITC,,"pH 7.0, 25 °C, NaCl 150 mM",Kd,19 nM
F9 activated FIXa (UniProt P00740),rFVIIIFc Fc fusion (Homo sapiens),FXa generation rate,phospholipid vesicles,together with: thrombin-activated rFVIIIFc,Kd,5.5 nM
"PAKKSEELVAEAHNLSTLLENAIQDTVRAQDQSFTALDWSWLQTE (IKBKB 701-745 C716S/E729A (Homo sapiens, UniProt O14920); sequence looked up)","IKBKG 2-419 C11A/C76A/C95A/C131A/C167A (Homo sapiens, UniProt Q9Y6K9)","competition with labelled peptide, fluorescence polarisation",,pH 7.4,Kd,4.9 nM
"ARTKQTARKSTG (Histone H3.1 2-13 (Homo sapiens, UniProt P68431); sequence looked up)","CHD3 454-508 (Homo sapiens, UniProt Q12873)",fluorescence titration,peptide,"pH 7.5, 25 °C, NaCl 150 mM, apparent",Kd,33000 nM
"MEDDAPMNLCNEQFEEIEDSPIDDNDNESFYNADGDVELEEEEVHE (spd-2 1-46 (Caenorhabditis elegans, UniProt P91870); sequence looked up)","zyg-1 cryptic polo box 338-564 (Caenorhabditis elegans, UniProt Q9GT24)",MST,,,Kd,420 nM
{FITC}-PAKKSEELVAEAHNLSTLLENAIQDTVREQDQSFTALDWSWLQTE (IKKβ 701-745 C716S (UniProt O14920); FITC label; FITC = O=C1OC2(c3ccc(O)cc3Oc3cc(O)ccc32)c2ccc(NC(=S)*)cc21; sequence looked up),"IKBKG C11A/C76A/C95A/C131A/C167A (Homo sapiens, UniProt Q9Y6K9)",fluorescence polarisation,peptide,"reduced, together with: DTT 10 mM",Kd,54 nM
THBS1 fragment (Homo sapiens),"pad-2 40-424 R298K/R299K (Caenorhabditis elegans, UniProt Q8WR51)",ITC,,25 °C,Kd,950 nM
{FITC}-SARWRFPARPGTTGGGGGGGRRGLGGAPRQRVPALLLPPGY (KMT2A 4-43 C-A; N-terminal FITC; FITC = O=C1OC2(c3ccc(O)cc3Oc3cc(O)ccc32)c2ccc(NC(=S)*)cc21),"MEN1 (Homo sapiens, UniProt O00255-1)",fluorescence polarisation,peptide,,Kd,0.76 nM
